# Assay results pooled from the literature.
# Lines come from different studies, so protocols differ.
# RPS6KA2 C-terminal kinase domain: Ribosomal protein S6 kinase alpha-2, C-terminal kinase domain (RPS6KA2, Homo sapiens, UniProt Q15349)
# RPS6KA2 N-terminal kinase domain: Ribosomal protein S6 kinase alpha-2, N-terminal kinase domain (RPS6KA2, Homo sapiens, UniProt Q15349)
SMILES,target,observed,technique,tested at,reference,remaining binding
Cc1ccc(-c2c(/C=C(\C#N)C(=O)NC(C)C)n(CCCO)c3ncnc(N)c23)cc1,RPS6KA2 C-terminal kinase domain,binding,competition with immobilised ligand,1 µM,,66%
Nc1ncc2c(n1)-c1c([nH]c3ccc(C4=CCOCC4)cc13)CCC2,RPS6KA2 C-terminal kinase domain,binding,competition with immobilised ligand,1 µM,,100%
C=CC(=O)N1CCCC(n2c(=O)c3ncccc3n(Cc3ccc(Oc4ccccc4)cc3)c2=O)C1 (stereo not drawn),RPS6KA2 C-terminal kinase domain,binding,competition with immobilised ligand,1 µM,,100%
CCN1CCN(Cc2ccc(C(=O)Nc3ccc(C)c(NCc4cnc5[nH]ccc5c4OC)c3)cc2C(F)(F)F)CC1,RPS6KA2 N-terminal kinase domain,binding,competition with immobilised ligand,1 µM,,91%
C=CC(=O)N1CCc2ccc(-n3c(=O)ccc4cnc5ccc(-c6cnn(C)c6)cc5c43)cc21,RPS6KA2 C-terminal kinase domain,,KINOMEscan,1 µM,DMSO control,68%
CC(C)=CC1OC(C)(C)C2C=C3C(=O)C(Cl)=CC(O)C3C3C(O)C4OC4C(=O)C132 (stereo not drawn),RPS6KA2 C-terminal kinase domain,cell-free assay,competition with immobilised ligand,10 µM,,82%
COc1cc(Nc2nc(C)cc(-c3cnn4nc(OC)ccc34)n2)cc(C(F)(F)F)c1,RPS6KA2 N-terminal kinase domain,binding,competition with immobilised ligand,1 µM,,93%
CNC1C[S+]2CC[S+]3CC[S+](C1)[Ru-4]321([N]=C=S)[n]2c3ccc(OC)cc3c3c4c(c5cc(F)c[n+]1c5c32)C(=O)NC4=O (stereo not drawn),RPS6KA2 N-terminal kinase domain,,KinomeScan,0.1 µM,untreated,84%
Cc1cnc2nc1Nc1cccc(c1)COC/C=C/COCc1cc(ccc1OCCN1CCOCC1)N2,RPS6KA2 C-terminal kinase domain,binding,competition with immobilised ligand,0.1 µM,,100%
COc1cc(Nc2nccc(-c3cnn4nc(OC)ccc34)n2)cc(C(F)(F)F)c1,RPS6KA2 C-terminal kinase domain,binding,competition with immobilised ligand,1 µM,,100%
CNC(=O)C1CCN(c2cc(C)c(F)cc2NC(=O)c2ccc(-c3cc(O)ccc3C)c(C)c2)CC1,RPS6KA2 C-terminal kinase domain,binding,competition with immobilised ligand,1 µM,,95%
COc1c(Cl)cccc1Nc1c(-c2ccncc2C#C[C@@]2(C)CCCN2C(=O)/C=C/CN(C)C)[nH]c2c1C(=O)NCC2,RPS6KA2 C-terminal kinase domain,binding,competition with immobilised ligand,3 µM,,84%

# For quick reference, copied from above:
SMILES,target,observed,technique,tested at,reference,remaining binding
CNC(=O)C1CCN(c2cc(C)c(F)cc2NC(=O)c2ccc(-c3cc(O)ccc3C)c(C)c2)CC1,RPS6KA2 C-terminal kinase domain,binding,competition with immobilised ligand,1 µM,,95%
